Measurements of several laboratories.
Each line is one published result; not all experiments were run side by side. “And” joins repeats or separate records; there may be more than shown. ± marks the error that the study gave.
SRD5A1: 3-oxo-5-alpha-steroid 4-dehydrogenase 1 (SRD5A1, Homo sapiens, UniProt P18405)
Sequence of UniProt P18405 (whole entry, looked up): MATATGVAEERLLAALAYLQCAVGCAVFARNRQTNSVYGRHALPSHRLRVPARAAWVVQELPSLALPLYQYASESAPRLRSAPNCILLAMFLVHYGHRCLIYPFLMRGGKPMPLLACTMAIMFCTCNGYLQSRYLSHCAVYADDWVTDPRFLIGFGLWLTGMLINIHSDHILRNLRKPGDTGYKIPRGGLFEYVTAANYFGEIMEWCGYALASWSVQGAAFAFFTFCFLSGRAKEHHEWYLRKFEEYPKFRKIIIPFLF
PRMT5: Protein arginine N-methyltransferase 5 (PRMT5, Homo sapiens, UniProt O14744)
Sequence of UniProt O14744 (whole entry, looked up): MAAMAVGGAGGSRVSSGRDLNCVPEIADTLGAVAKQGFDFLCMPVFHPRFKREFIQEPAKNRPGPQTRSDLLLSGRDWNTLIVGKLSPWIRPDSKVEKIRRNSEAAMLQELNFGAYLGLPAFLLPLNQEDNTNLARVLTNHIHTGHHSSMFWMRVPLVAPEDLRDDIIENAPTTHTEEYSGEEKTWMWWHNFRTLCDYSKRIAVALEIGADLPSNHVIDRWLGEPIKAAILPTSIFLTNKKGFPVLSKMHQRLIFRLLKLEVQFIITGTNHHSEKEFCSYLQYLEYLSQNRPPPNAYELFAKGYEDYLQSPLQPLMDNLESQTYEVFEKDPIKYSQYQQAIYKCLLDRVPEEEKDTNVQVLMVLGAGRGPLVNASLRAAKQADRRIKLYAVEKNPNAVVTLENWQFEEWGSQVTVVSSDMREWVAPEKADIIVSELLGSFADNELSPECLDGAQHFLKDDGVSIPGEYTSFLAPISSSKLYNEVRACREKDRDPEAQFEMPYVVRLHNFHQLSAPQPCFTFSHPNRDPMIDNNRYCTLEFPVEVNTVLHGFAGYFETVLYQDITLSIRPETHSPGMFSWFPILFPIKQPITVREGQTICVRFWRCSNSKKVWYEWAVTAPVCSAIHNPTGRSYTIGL
ESR1: Estrogen receptor (ESR1, Homo sapiens, UniProt P03372)
Sequence of UniProt P03372 (whole entry, looked up): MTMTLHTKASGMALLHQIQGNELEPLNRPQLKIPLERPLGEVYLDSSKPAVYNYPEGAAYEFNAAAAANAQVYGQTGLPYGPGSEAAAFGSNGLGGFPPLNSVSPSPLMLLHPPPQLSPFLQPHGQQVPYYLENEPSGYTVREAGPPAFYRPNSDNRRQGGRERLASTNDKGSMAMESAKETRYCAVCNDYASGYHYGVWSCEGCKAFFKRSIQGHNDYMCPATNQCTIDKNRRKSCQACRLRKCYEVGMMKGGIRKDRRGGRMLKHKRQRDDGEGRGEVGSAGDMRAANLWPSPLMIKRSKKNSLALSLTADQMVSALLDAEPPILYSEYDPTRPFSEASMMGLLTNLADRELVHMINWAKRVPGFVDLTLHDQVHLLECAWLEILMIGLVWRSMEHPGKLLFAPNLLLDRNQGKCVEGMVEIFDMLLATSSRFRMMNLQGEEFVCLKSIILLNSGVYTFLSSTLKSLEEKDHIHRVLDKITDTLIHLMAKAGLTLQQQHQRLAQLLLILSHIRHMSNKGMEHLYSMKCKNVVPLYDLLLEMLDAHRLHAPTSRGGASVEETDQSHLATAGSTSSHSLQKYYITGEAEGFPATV
AGER: Advanced glycosylation end product-specific receptor (AGER, Homo sapiens, UniProt Q15109)
Sequence of UniProt Q15109 (whole entry, looked up): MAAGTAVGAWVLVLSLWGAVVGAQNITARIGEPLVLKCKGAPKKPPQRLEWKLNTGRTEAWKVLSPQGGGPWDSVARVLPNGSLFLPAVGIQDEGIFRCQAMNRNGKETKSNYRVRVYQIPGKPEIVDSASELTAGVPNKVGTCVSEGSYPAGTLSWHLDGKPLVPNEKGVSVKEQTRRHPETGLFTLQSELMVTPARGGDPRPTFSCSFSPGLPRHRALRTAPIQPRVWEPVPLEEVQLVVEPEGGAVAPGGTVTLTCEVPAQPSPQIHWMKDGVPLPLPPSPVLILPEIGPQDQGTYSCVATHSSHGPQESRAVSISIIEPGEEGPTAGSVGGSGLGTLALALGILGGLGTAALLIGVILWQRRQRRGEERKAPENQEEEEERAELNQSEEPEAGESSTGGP
DRD5: D(1B) dopamine receptor (DRD5, Homo sapiens, UniProt P21918)
Sequence of UniProt P21918 (whole entry, looked up): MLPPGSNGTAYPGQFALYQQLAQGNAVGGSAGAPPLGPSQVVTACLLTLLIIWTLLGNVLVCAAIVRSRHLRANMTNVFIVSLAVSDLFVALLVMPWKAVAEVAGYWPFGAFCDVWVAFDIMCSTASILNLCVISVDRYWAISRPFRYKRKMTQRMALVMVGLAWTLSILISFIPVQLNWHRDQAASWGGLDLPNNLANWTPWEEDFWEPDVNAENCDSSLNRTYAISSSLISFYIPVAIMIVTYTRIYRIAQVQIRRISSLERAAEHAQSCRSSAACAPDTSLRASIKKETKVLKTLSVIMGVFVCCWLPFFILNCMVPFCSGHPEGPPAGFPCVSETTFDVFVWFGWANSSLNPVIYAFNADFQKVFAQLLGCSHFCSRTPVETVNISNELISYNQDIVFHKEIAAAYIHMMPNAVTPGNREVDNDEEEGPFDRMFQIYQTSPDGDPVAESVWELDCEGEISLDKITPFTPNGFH
JAK2: Tyrosine-protein kinase JAK2 (JAK2, Homo sapiens, UniProt O60674)
Sequence of UniProt O60674 (whole entry, looked up): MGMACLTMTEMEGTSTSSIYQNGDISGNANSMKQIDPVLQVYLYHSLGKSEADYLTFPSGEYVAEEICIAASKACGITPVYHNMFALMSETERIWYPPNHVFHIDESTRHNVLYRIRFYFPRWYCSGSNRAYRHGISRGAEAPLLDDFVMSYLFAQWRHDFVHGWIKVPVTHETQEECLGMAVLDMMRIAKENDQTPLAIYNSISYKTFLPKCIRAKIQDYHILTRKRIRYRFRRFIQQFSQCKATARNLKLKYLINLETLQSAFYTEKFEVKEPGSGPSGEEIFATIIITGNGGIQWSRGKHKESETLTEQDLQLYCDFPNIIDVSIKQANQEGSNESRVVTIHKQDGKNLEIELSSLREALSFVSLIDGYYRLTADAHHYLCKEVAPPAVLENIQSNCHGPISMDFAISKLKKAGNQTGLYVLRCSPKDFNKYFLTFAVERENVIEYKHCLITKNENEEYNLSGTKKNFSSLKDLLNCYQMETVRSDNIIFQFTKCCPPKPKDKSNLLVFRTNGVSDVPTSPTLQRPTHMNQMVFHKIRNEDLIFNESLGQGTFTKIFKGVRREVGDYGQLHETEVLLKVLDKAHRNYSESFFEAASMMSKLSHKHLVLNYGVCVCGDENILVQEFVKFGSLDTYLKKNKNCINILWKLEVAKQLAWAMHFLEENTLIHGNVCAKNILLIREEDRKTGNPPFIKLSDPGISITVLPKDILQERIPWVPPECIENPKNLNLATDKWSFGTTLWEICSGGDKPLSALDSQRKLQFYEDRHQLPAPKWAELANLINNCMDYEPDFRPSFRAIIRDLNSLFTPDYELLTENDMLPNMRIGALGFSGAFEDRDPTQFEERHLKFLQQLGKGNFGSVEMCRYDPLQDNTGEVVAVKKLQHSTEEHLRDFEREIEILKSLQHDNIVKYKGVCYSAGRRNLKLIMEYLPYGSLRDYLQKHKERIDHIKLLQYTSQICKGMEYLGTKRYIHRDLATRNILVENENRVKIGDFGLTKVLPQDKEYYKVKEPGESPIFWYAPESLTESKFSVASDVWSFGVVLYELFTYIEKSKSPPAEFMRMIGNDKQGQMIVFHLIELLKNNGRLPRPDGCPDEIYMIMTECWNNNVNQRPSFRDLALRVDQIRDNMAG
CTSB: Cathepsin B (CTSB, Homo sapiens, UniProt P07858)
PDK2: [Pyruvate dehydrogenase (acetyl-transferring)] kinase isozyme 2, mitochondrial (PDK2, Homo sapiens, UniProt Q15119)
SIRT2: NAD-dependent protein deacetylase sirtuin-2 (SIRT2, Homo sapiens, UniProt Q8IXJ6)
Sequence of UniProt Q8IXJ6 (whole entry, looked up): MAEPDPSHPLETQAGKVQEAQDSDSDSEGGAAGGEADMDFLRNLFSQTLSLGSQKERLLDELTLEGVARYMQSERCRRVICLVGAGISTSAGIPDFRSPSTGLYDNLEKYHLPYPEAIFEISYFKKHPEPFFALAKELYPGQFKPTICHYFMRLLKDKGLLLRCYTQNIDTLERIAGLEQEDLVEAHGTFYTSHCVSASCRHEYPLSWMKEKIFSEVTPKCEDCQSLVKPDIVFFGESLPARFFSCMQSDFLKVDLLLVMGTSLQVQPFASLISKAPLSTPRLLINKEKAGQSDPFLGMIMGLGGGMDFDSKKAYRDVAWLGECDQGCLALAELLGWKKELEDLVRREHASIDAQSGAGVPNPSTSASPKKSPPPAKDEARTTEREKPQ
Sequence of UniProt P55055 (whole entry, looked up): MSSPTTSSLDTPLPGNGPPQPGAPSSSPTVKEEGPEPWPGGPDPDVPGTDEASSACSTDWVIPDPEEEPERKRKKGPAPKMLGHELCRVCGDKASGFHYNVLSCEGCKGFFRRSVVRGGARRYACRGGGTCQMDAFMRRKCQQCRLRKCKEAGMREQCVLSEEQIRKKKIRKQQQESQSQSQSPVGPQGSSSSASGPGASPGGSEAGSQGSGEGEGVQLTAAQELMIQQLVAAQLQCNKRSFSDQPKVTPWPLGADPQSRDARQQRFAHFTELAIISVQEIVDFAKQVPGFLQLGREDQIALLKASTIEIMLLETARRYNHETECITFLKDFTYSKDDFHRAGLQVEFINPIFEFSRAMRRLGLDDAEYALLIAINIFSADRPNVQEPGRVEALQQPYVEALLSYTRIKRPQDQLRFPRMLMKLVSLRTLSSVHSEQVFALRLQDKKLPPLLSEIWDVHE
Sequence of UniProt P35368 (whole entry, looked up): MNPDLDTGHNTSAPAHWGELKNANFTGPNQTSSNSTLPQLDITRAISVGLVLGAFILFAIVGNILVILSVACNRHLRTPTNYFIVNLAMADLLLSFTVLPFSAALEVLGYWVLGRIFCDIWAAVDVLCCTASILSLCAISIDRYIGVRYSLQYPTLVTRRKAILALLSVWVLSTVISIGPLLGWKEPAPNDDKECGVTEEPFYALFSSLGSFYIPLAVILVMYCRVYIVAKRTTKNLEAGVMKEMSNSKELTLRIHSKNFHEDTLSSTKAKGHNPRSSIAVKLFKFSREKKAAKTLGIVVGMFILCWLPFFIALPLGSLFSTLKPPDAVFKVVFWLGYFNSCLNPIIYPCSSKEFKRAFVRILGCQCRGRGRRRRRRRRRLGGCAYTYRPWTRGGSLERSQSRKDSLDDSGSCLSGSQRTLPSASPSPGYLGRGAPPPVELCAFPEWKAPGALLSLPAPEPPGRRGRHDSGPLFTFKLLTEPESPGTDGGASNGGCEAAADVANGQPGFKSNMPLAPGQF

| SMILES | target | test | test system | conditions | inhibition |
| --- | --- | --- | --- | --- | --- |
| O=C1CO[C@H](CNC(=O)C2(c3ccc(Cl)cc3)CC2)CN1C1Cc2ccccc2C1 | CXCR1 (Homo sapiens, UniProt P25024) | β-arrestin recruitment, antagonist |  | 1 µM | 7% |
| O=C1c2sc(-c3ccc(N4CCC(F)C4)nc3F)nc2CCN1c1cccnc1 (stereo not drawn) | MT3 (ML-2) receptor | radioligand binding |  | 1 µM, added: agonist radioligand | -33% |
| CC(=O)Oc1ccc(/C=C/C(=O)Oc2cc(C(F)(F)F)cc(C(F)(F)F)c2)cc1OC(C)=O | SRD5A1 | enzyme activity in cells, inhibitor | HaCaT | 25 µM | 38.6% |
| CN1CCN(Cc2ccc(-c3ccc(CO[C@H]4CCC[C@@H]4NC(=O)c4cc(-c5cnn(C)c5)cnc4N)cc3)cc2)CC1 | 5'-AMP-activated protein kinase catalytic subunit alpha-2, with beta1 gamma3 (PRKAA2, Homo sapiens, UniProt P54646) | SelectScreen kinase profiling |  | 0.1 µM | 8% |
| C/C=C/C(=O)Nc1ccc2nc(NCCCCCN(C)C)nc(NCCCCCCN(C)C)c2c1 | PRMT5 | enzyme activity, inhibitor, radiometric |  | 10 µM | 3% |
| Cn1ccc2cc(-n3c(=O)[nH]c4sc5c(c4c3=O)CCCC5)ccc21 | ESR1 | cell-free assay, radioligand |  | 10 µM | 9% |
| N=C(N)NCCCC(NC(=O)C(CC(=O)NO)Cc1ccc2ccccc2c1)C(=O)NC(Cc1c[nH]c2ccccc12)C(=O)NC(CCC(=O)O)C(N)=O (stereo not drawn) | MMP14 (Homo sapiens, UniProt P50281) |  |  | 1 µM | 16% |
| CCCCCNC(=O)N1N=C(c2ccc(NC(=O)Nc3ccc(Cl)cc3)cc2)CC1c1ccc(Cl)cc1 (stereo not drawn) | AGER |  |  | 100 µM | 19% |
| Cc1ccc(N(O)/N=N/c2ccc(S(=O)(=O)Nc3nccs3)cc2)cc1 | α-glucosidase, rat intestine | enzyme activity |  | 20 µg/mL, added: 4-nitrophenyl α-D-glucopyranoside | 7.5 ± 0.09% |
| CC(=O)C12NC(C)(C)CC1(C)C(=O)C1=C2c2c(c3c4n2C(C)(C)CC2=C4C4(CC(C)(C)NC(C)(C4)C2=O)CC3(C)C)C(=O)C(C)(C)N1 (single isomer, unassigned; (+)) | TRPC5 (Homo sapiens, UniProt Q9UL62) | ion current, antagonist, whole-cell patch clamp | HEK293T | 10 µM | 8.69 ± 0.06% |
| O=C1c2sc(-c3ccc(N4CCC(CO)CC4)nc3F)nc2CCN1c1cccnc1 | NR1H2 (Homo sapiens, UniProt P55055) | ligand displacement, radioligand |  | 1 µM | -3% |
| C#CCOC(=O)[C@]1(C)C=C(C(=O)OC(C)(C)C)C(=O)CC1 | MAPK14 (Homo sapiens, UniProt Q16539) | kinase activity, inhibitor, Kinase-Glo luminescence |  | 10 µM | no inhibition |
| COc1ccc(NC(=O)/C(=C/c2ccc(N(C)C)cc2Cl)Sc2ccc(OC)cc2)cc1 | AGER | AGE2-BSA binding, inhibitor, competitive ELISA |  | 100 µM, 60 min, added: AGE2-BSA | 0% |
| CC(C)Cn1c(SCC(=O)N2CCc3ccccc3C2)nc2cc(Cl)ccc2c1=O | DRD5 | ligand displacement, radioligand |  | 10 µM | -15% |
| Cc1cnc2nc1Nc1cccc(c1)COCc1cc(ccc1OCCN1CCOCC1)N2 | JAK2 | inhibitor, Z'-LYTE kinase |  | 111.1 nM | 72.5% and 73.9% and 74.9% |
| COc1ccc(C[C@H](NC(=O)Cc2cccc(Oc3ccccc3)c2)C(=O)N[C@@H](Cc2c[nH]c3ccccc23)C(=O)NCc2ccc(C)cc2)cc1OC | CTSB | enzyme activity, inhibitor |  | 100 µM | 1% |
| O=C(Nc1ccc(F)cc1)Nc1ccc(C2CC(c3ccc(Cl)cc3)=NN2)cc1 (stereo not drawn) | AGER |  |  | 100 µM | 35% |
| Cc1cnc2nc1Nc1cccc(c1)COC/C=C/COCc1cc(ccc1OCCN1CCOCC1)N2 | JAK2 | inhibitor, Z'-LYTE kinase |  | 0.06104 nM | 16% and 15.4% and 12.1% |
| CCn1cc(C(=O)O)c(=O)c2c(N)c(F)c(NC3CCCCC3)cc21 | PDK2 | kinase activity |  | 0.1 µM, added: ATP at Km | -1.1% |
| Cc1ccnc(OC[C@H]2CN(CCN3CCc4ccccc43)CCO2)c1 | DRD5 | radioligand binding |  | concentration not given, added: [3H]SCH23390 | 23.7% |
| C=CC(=O)N1Cc2nc(-c3cc(-c4cc(Cl)cnc4Cl)c(F)cc3F)n(-c3ccncn3)c2C1 | 5'-AMP-activated protein kinase catalytic subunit alpha-2, with beta2 gamma3 (PRKAA2, Homo sapiens, UniProt P54646) | kinome panel |  | 1 µM | 10% |
| COc1cc(/C=C/C(=O)Oc2ccc(C(F)(F)F)c(C(F)(F)F)c2)ccc1O | SRD5A1 | enzyme activity in cells, inhibitor | HaCaT | 5 µM | 45.8% |
| CN1CC[C@@H](COc2cnc(C#N)cc2-c2ccn3nc(NC(=O)C4CC4)cc3c2)C1 | PDK2 | enzyme activity, inhibitor |  | 1 µM | 22% |
| O=C(Nc1ccc(Cl)cc1)Nc1ccc(C2=NNC(c3ccc(Br)cc3)C2)cc1 (stereo not drawn) | AGER |  |  | 100 µM | 18% |

| SMILES | target | test | test system | conditions | inhibition |
| --- | --- | --- | --- | --- | --- |
| COc1ncc2nc(C)n(Cc3ncc(S(N)(=O)=O)cc3F)c2c1-c1ccccc1 | HTR3A (Homo sapiens, UniProt P46098) | antagonist, cell-based |  | 10 µM | 1.86% |
| CCCCn1cnc2ccc(-c3ccc(NC(=O)CC)nc3)cc2c1=O | PIP4K2C (Homo sapiens, UniProt Q8TBX8) | binding, competition with immobilised ligand |  | 0.5 µM | 95.2% |
| CN(C)C/C=C/C(=O)Nc1ccc2nc(NCCCCCN(C)C)nc(NCCCCCCN(C)C)c2c1 | PRMT5 | enzyme activity, inhibitor, radiometric |  | 50 µM | 11% |
| COCC(=O)N1CCc2cc(-c3csc(NC(=O)c4cc(OC)cc(OC)c4)n3)ccc21 | Cacna1b (Rattus norvegicus, UniProt Q02294) | cell-free assay |  | 10 µM | -17% |
| COc1ccc(C(=O)Nc2c(-c3cccs3)nc3ccccn23)cc1 | ADRA1B (Homo sapiens, UniProt P35368) | ligand displacement, radioligand |  | 10 µM | < 50% |
| C[Si](C)(C)C[C@@H](CN)CC(=O)O | Htr1b (Rattus norvegicus, UniProt P28564) | ligand displacement, radioligand |  | 75 µM | -3% |
| CO[C@@H](C)c1c(NC(=O)Nc2cnc(-n3nccn3)c(C(F)(F)F)c2)cnc2sc(C)nc12 | CCR1 (Homo sapiens, UniProt P32246) | ligand displacement, radioligand |  | 10 µM | -3.6% |
| Cc1ccc(CNC(=O)[C@H](CCc2ccccc2)NC(=O)[C@H](CC(=O)NCC(C)(C)C)NC(=O)c2ccc(OCc3ccccc3)cc2)cc1 | CTSB | enzyme activity, inhibitor |  | 100 µM | -14% |
| CCCCC(=O)N1N=C(c2ccc(NC(=O)Nc3ccc(Cl)cc3)cc2)CC1c1ccc(Cl)cc1 (stereo not drawn) | AGER |  |  | 100 µM | 41% |
| CC(=O)Oc1ccc(/C=C/C(=O)Oc2ccc(C(F)(F)F)c(C(F)(F)F)c2)cc1OC(C)=O | SRD5A1 | enzyme activity in cells, inhibitor | HaCaT | 15 µM | 24.2% |
| O=C(NC1CCC1)[C@H](Cc1c[nH]c2ccccc12)NC(=O)[C@H](CCCCNC(=S)NCCc1noc(=O)[nH]1)NS(=O)(=O)c1cccc(F)c1 | SIRT2 | deacylase activity |  | 1 µM, added: NAD+ 500 µM | < 0% |
| Cc1[nH]nc2c1N=C(c1ccccc1Cl)c1cnc(N3CCOCC3)cc1N2 | ESR1 | cell-free assay |  | 10 µM | 8% |
| Cc1cnc2nc1Nc1cccc(c1)COCCCCOCc1cc(ccc1OCCN1CCCC1)N2 | JAK2 | inhibitor, Z'-LYTE kinase |  | 41.15 nM | 3.37% and 8.98% and 8.95% |
| C=CC(=O)Nc1cccc(-c2cnc3[nH]cc(C(=O)NC(C)(C)C)c3n2)c1 | CK1 | kinase activity |  | 0.1 µM | 8% |
| Cc1cnc2nc1Nc1cc(F)cc(c1)COC/C=C/COCc1cc(ccc1OCCN1CCCC1)N2 | JAK2 | inhibitor, Z'-LYTE kinase |  | 111.1 nM | 93.8% and 91.4% |
| N#Cc1c(Nc2ccccc2C(F)(F)F)s[nH]c1=O | CD38 (Homo sapiens, UniProt P28907) | enzyme activity, inhibitor |  | 10 µM | 0% |
| Cc1cccc(O[C@H]2CCC[C@@H](C(C)CNCc3ccncc3)C2)c1 (relative stereo) | TSSK2 (Homo sapiens, UniProt Q96PF2) | enzyme activity, inhibitor |  | 1 µM | 1% |
| O=C(Nc1ccc(C(F)F)cc1)[C@H](CC1CCCCC1)Nc1nn2c(=O)ccnc2s1 | PTPN7 (Homo sapiens, UniProt P35236) | enzyme activity, inhibitor |  | 10 µM | -1% |
| Brc1ccccc1-c1nnc(CSc2nnnn2-c2ccccc2)o1 | ADRA2A (Homo sapiens, UniProt P08913) | ligand displacement, radioligand |  | 10 µM | 4% |
| c1ccc(OC[C@H]2CN(CCN3CCc4ccccc43)CCO2)nc1 | DRD5 | radioligand binding |  | concentration not given, added: [3H]SCH23390 | 42.4% |
| CCCCCCCCCCCCCC(=S)NCCCC[C@H](NC(=O)OCc1ccccc1)C(=O)Nc1ccccc1 | SIRT2 | enzyme activity, inhibitor |  | 100 µM | < 5% |
| C[Si]1(C[C@H](CN)CC(=O)O)CCCC1 | TRHR (Homo sapiens, UniProt P34981) | ligand displacement, radioligand |  | 70 µM | -14% |
| N#Cc1cc(C(=O)c2cc(Br)ccc2O)cn(-c2ccccc2Cl)c1=O | Adenylate cyclase type 10 (Homo sapiens, UniProt Q96PN6) | inhibitor |  | 10 µM | 67.6% |
| O=C(Nc1ccc(Cl)cc1)Nc1ccc(C2=NNC(c3ccc(NC(=O)Nc4ccc(Cl)cc4)cc3)C2)cc1 (stereo not drawn) | AGER |  |  | 100 µM | 94% |

Excerpt of the above:
| SMILES | target | test | test system | conditions | inhibition |
| --- | --- | --- | --- | --- | --- |
| O=C1CO[C@H](CNC(=O)C2(c3ccc(Cl)cc3)CC2)CN1C1Cc2ccccc2C1 | CXCR1 (Homo sapiens, UniProt P25024) | β-arrestin recruitment, antagonist |  | 1 µM | 7% |
| O=C1c2sc(-c3ccc(N4CCC(F)C4)nc3F)nc2CCN1c1cccnc1 (stereo not drawn) | MT3 (ML-2) receptor | radioligand binding |  | 1 µM, added: agonist radioligand | -33% |
| CC(=O)Oc1ccc(/C=C/C(=O)Oc2cc(C(F)(F)F)cc(C(F)(F)F)c2)cc1OC(C)=O | SRD5A1 | enzyme activity in cells, inhibitor | HaCaT | 25 µM | 38.6% |
